Measurements pooled from the literature.
Each numbered part is a random draw from the data of one study; scales do not carry over between parts. Several values in a cell are separate wells, animals, samples, runs or records. Changes are numbered by the printed parent chain.
Chain of UniProt P11229 (whole entry, looked up): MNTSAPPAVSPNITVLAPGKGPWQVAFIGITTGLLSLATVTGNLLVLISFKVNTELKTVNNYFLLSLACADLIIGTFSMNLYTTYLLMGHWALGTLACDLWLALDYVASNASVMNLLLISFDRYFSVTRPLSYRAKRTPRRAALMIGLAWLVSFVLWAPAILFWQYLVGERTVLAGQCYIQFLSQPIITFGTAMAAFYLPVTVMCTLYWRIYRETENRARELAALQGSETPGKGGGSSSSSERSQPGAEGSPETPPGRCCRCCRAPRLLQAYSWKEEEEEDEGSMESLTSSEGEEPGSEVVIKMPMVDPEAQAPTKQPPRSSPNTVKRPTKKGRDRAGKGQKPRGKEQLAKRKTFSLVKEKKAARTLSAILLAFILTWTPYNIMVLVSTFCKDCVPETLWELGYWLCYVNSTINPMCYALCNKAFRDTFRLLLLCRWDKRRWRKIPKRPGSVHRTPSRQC

Sample 1 — effect on: peptide-MHC binding; molecule type: peptide; concentration: concentration not given; measurement: binding
Target: HLA class I histocompatibility antigen, C alpha chain, allele C*04:01 (Homo sapiens, UniProt P10321)
Sequence = WYDWQQVPF; result = active
Sequence = KIFKVTGEF; result = inactive
Sequence = LFPELECFF; result = inactive
Sequence = YTPEQWWPF; result = inactive
Sequence = LPADPASVL; result = inactive
Sequence = KVFPYALINK; result = inactive
Sequence = KVADVDLAVPV; result = inactive
Sequence = RPPYSSYGY; result = inactive

Sample 2 — target: CCNB2, cyclin fold, Cln2 fusion (human); technique: yeast growth competition, sequencing; matrix: yeast; setting: weak parent motif; baseline: not given; direction: higher = stronger binding; measurement: normalised enrichment score
Starting sequence: viral docking peptide; KGVKRKLFAEDSS; partner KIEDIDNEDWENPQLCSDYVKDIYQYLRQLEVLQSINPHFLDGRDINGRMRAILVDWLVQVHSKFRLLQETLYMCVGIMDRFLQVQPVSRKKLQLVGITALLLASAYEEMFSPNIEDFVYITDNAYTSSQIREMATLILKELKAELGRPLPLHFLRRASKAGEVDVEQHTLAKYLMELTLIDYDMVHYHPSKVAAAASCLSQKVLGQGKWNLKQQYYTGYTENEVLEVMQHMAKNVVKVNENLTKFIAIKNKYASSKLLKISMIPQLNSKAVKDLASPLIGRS
Change = KGVKRKMFAEDSS [L7M]; result = 0.478
Change = KGVKRKLFANDSS [E10N]; result = 0.63
Change = KGVKRKLFAESSS [D11S]; result = 1.16
Change = KGVKRKLFAVDSS [E10V]; result = 0.515
Change = KGVFRKLFAEDSS [K4F]; result = 0.364
Change = KGVKRKLFAEDSA [S13A]; result = 0.972
Change = KGAKRKLFAEDSS [V3A]; result = 0.408
Change = KGVKRKLFAWDSS [E10W]; result = 0.87

Other studies, line by line
SMILES = COc1ccc2c(c1)O[C@@H](c1ccc(OC)c(OC)c1)C[C@H]2NC(=O)C1(c2ccc3c(c2)OC(F)(F)O3)CC1; target or system = Muscarinic acetylcholine receptor M1 (CHRM1, Homo sapiens, UniProt P11229); effect on = binding; technique = radioligand binding; concentration = 10 µM; measurement = inhibition; result = -17.4%
SMILES = CC(C)S(=O)(=O)c1cc2c(Nc3ccc4sc(C5CCCC5)nc4c3)ccnc2cc1OCCO; target or system = L929 RIPK3-/- reexpressing RIPK3 K51A; technique = CCK-8; concentration = 12.5 µM; added = zVAD; measurement = survival; result = 59.3% and 58.9% and 71.8% and 64% and 64.7%

Repeated from above (sample 2):
Change = KGVKRKLFANDSS [E10N]; result = 0.63
Change = KGVKRKLFAESSS [D11S]; result = 1.16
